# Measured values gathered from unrelated publications.
# Parts stem from different laboratories: compare values within a part only. Positions count from the first letter of the parent shown.

# Series 1
# Target: Histone acetyltransferase KAT6A, winged helix 2, GST fusion (KAT6A, Homo sapiens, UniProt Q92794, residues 85-181)
# Technique: protein binding microarray
# Form: double-stranded DNA, one strand shown
# Sample: in vitro
# Tested at: not given
# Setting: 8-mer, flanks averaged, mean of 2 arrays, mostly near background
# Relative to: not given
# Direction: higher = stronger binding
# Construct (chain): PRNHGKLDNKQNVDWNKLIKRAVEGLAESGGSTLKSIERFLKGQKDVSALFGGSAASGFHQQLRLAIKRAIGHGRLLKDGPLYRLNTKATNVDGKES
Oligonucleotide,E-score
AATGCTAC,0.209
ACACCACA,0.0461
CATAGTGA,-0.162
ACGGTTGG,-0.103
CAGGAAAA,0.145
ATTGTGTA,0.00777
ATGTCGTA,-0.0257
CCTTTTCG,0.108
ATACTGCC,0.016
ATATCAAC,0.0166
AATGCAGG,0.0871
ACGATATC,-0.0585
ATAGAGGC,-0.00334
CGGGACCC,0.173
ACTAAGTG,0.0234
AAAAGGCA,0.0446
CTATGGCA,-0.14
AACTCAGC,-0.000625
AATGGGCG,-0.127
ACATGTGG,-0.2
CCAACTCC,0.0325
CCTTTTGA,-0.0247
ATCGATAG,-0.0153
CCATGCGG,0.16
CAACAGAA,0.00615

# Series 2
# Target: Sal-like protein 4, full length isoform A (SALL4, Homo sapiens, UniProt Q9UJQ4, residues 1-1053)
# UniProt Q9UJQ4, sequence (whole entry, looked up): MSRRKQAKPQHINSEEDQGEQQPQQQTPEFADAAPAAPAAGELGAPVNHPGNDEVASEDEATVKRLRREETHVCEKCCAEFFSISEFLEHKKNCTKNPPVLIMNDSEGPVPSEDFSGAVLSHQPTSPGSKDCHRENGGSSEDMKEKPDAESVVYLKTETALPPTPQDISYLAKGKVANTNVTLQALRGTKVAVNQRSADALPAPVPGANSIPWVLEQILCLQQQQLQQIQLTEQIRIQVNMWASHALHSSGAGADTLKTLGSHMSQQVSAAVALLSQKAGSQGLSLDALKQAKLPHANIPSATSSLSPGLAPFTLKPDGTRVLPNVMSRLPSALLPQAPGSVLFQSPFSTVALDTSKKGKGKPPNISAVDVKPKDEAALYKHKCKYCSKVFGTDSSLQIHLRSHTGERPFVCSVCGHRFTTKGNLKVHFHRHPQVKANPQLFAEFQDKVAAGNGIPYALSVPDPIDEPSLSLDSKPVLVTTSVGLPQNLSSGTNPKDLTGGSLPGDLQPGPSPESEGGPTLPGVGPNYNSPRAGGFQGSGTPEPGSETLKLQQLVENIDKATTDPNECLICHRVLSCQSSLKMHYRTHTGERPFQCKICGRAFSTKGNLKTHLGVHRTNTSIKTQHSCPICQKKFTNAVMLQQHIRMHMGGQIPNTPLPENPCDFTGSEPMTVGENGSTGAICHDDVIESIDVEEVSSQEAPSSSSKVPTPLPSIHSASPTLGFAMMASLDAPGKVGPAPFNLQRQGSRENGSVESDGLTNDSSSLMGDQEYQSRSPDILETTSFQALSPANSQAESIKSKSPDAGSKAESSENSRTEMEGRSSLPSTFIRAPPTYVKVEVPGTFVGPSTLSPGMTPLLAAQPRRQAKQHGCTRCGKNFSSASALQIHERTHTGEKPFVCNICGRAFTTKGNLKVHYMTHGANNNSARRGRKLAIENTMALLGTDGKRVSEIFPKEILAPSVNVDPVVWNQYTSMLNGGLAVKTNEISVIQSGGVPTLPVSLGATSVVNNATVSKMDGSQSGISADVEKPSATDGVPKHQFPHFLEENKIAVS
# Technique: universal PBM
# Form: double-stranded DNA, one strand shown
# Sample: in vitro
# Tested at: 600 nM
# Setting: 8-mer, flanks averaged, mean of replicates
# Direction: higher = stronger binding
Oligonucleotide,E-score
ATCATGCC,0.0926
CCGAATTC,-0.122
GAGGGTAA,-0.0699
GCTGAAAA,0.0829
CTCGAACA,0.041
CGACAGCG,-0.256
CGAACACA,-0.041
AGCGCGAA,-0.123
GCACGCAA,-0.256
AAGAAACA,0.262
CGATTGCG,-0.15
ACAGCTGG,-0.223
ACTCAGAG,-0.123
ACTATTTC,0.255
AATCAATG,0.262
ATTTAATG,0.307
CCACAACG,-0.174
AGGACCCG,-0.39
ACGGAACG,-0.0674
ATCGAACG,-0.00269
GGAACGTA,-0.0133
CCCCGTAC,-0.35
ACAGAATC,-0.0359
GACGCCGC,-0.412
CGTCGGTC,-0.178

# Series 3
# Target: Ras GTPase-activating protein-binding protein 1, full length (G3BP1, Homo sapiens, UniProt Q13283)
# UniProt Q13283, sequence (whole entry, looked up): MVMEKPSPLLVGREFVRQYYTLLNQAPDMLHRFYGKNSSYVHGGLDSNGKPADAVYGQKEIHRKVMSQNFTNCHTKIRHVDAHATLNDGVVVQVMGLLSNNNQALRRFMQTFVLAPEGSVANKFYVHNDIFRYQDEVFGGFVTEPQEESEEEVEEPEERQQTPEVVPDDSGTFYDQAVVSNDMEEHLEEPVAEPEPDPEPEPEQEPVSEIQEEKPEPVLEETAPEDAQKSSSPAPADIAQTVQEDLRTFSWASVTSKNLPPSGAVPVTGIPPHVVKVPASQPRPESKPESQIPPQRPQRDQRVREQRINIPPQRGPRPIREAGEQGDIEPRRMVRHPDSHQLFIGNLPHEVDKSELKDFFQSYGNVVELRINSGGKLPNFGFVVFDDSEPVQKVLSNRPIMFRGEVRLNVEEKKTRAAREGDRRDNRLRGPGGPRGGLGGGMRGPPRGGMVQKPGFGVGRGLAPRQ
# Technique: RNA Bind-n-Seq
# Form: RNA
# Sample: in vitro
# Tested at: 200 nM
# Setting: whole 134-nt RNA, ends assumed
# Added: 150 mM LiCl
# Relative to: input library
# Direction: higher = stronger binding
# Library: 7-deaza-guanosine replaces G
# All sequences stand within: GGGAGUUCUACAGUCCGACGAUC … UGGAAUUCUCGGGUGUCAAGG
Oligonucleotide,log2 enrichment
AAGUCCUGUGCUACACAUCGUAUGUACCGAAUCGGGAGGGAAAAAAAGGGUUUGGGAAAGUAUUAUGUUACGCCGUUCGGAUCUGCACUU,-1.75
UAACUUUAGAGGAGGAUCUGAUGGAUAUGGCAGUGGACGUGGAUUUGGGGAUUGCUAUAAUGGGUAUGGAGGAGGACCUGGAGGUGGCAA,-0.825
ACCAUGCAGGUGGGCAUCUUUGGGAAGUGGGGCAAGGGGGGGAUAGGGAGGGGGGUAACACUUUGGGAACAGGUGGUCGCAGGUCGUUUC,-0.00607
CUCAAGUCCUGUGCUACACAUCGUAUGUACCGAAUCGGGGAGGGAGGGAGGGGAAAGUAUUAUGUUACGCCGUUCGGAUCUGCACUUCCA,-0.539
CCUCAAGUCCUGUGCUACACAUCGUAUGUACCGAAUCGGGGAGGAGGGGAGGGAAAGUAUUAUGUUACGCCGUUCGGAUCUGCACUUCCA,0.639
AGUCCUGUGCUACACAUCGUAUGUACCGAAUCGGGAAAAGGGAAAAGGGGAAAAGGGAAAGUAUUAUGUUACGCCGUUCGGAUCUGCACU,-0.407
UCAAGUCCUGUGCUACACAUCGUAUGUACCGAAUCGGUUUUUGGUGGAAAAAGGAAAGUAUUAUGUUACGCCGUUCGGAUCUGCACUUCC,-0.363
UCCUGUGCUACACAUCGUAUGUACCGAAUCAAACCCCCCCAAACCCCCCCAAACCCAAAAAAGUAUUAUGUUACGCCGUUCGGAUCUGCA,0.366
CACAGACAACACGCACCCACACAGACACAGAGGGAAGGGGUUGGGAUGGGGACGGGGUGCACAGCAGGGCGGGGUAGGACCCCAGCCCCU,-0.511
UGGUCAUGGGAUGGAGAACCAGUUCUUCCCUUAUAUCUUCACCAUAUGACUAUUGACCCUGUCUUAGGCUGCUCCCAGGCCGUUCCAUUG,-0.0159
GUCCUGUGCUACACAUCGUAUGUACCGAAUCGGCCCCCGGGCCCCCGGGGCCCCCGGGGAAAGUAUUAUGUUACGCCGUUCGGAUCUGCA,-1.97

# Series 4
# Target: RNA binding protein fox-1 homolog 2, RRM domain, GST-SBP tag (RBFOX2, Homo sapiens, UniProt O43251-10, residues 100-194)
# Technique: RNA Bind-n-Seq
# Form: RNA
# Sample: in vitro
# Tested at: 365 nM
# Setting: natural RNA segment, single round, ends assumed
# Relative to: no-protein control
# Direction: higher = stronger binding
# All sequences stand within: GGGAGUUCUACAGUCCGACGAUC … UGGAAUUCUCGGGUGCCAA
# Target sequence (chain): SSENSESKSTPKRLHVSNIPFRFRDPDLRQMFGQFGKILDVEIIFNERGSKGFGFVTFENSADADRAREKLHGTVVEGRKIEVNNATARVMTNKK
Oligonucleotide,RBNS enrichment (R)
UUCCUUGGGGGCAGGGACUUGACCAUGUGUCUAUUUCUGUAAUUCCCAAAUGCCUAACAGUGCAGUCAUUUCUCAAUAAAUACAUUUUAAAUAAAUGAACAAAUUCUGCC,0.619
UCAACCAUUAGUGCUACCACCUUCUCACAUUACAAUACAAUUACUGGAAGCAAGUACUGCAUUUCCUAUGCAACAAAAAAGGAAAAAUAAAAAAUUGCUAAUGCUAUGGA,0.805
GAUAUUGACAUUUUAUUAAUAUUUUUUAAAUUGUUACGUUUAUAAAUUUGGUACUUAAGGCACAGCCAGUGUGAGGCACUGAACGCGACAUUUAUUACAAUGAGCUGCUG,0.575
AGAGGUAAUAGCAUCUGUGGGACACAGCAGAAUUGUACAAGUGUACAAUUAGUGUGUAGCAGAGCACAGCAGUUACGAGCUUGUAUAACGAGGACUCUGGAUCCAGAUUU,0.335
AGGUGGCCCCCACAGCUUCCCACACCCAUUACCCAGCCUGACAGGUGGGCAUGGUGGGCAUCCCAUGCAGCACAACCCAAAUGGACCACCACCACCUUGGAUGCAGCCAC,0.604
UCAGAGCCAAGCCAGGGUUGGAGAAAACUGCAUUCCUACGAGGGUAAAAGUAGCUGCCCUCUUUGAUCCUUUCUUACUAGGCUUCAUGUGGGAUGGGAGAGGAUGUCCCC,0.528
AUAUUGUGCUAUGAUAACCAACCUUCUUCCAAGGAGUGACCAUUACUGCCUACAUUUGCGUUGCUUUCUACAUAGAGACUUGUAUAAUAGUAUUAAUAGUAGCUCAUUCU,0.331
AGCUAUGUGGAACGGUUCUUUUCAUCCCCUAGAUGAUGCUGGCACAGAAGGCAUUGUUCCCUACCCUCUGGCGAGUGCAUGCAGCAGAGAGUUAGACAGCAACUUACCUA,31.1
UGUGAUACAUUCCCUGGCUGAGGACUCGGGGCUGGCCUGGGCAUUUGCCUGGACUGCUGGAAACACUAGGUCUCCUGUGCGUGUGUGGAAAGGUAAUAGUGGCACAAUGU,0.562
UCCUGCCAUACAUCUACAAAGUGGGUUUUGAGUGAGGGCAGGUGGCCCAGUGGCUUUGGGUGGCGACUGAGCUGGUCCCACGAGGGGAGGAGGGUUUAUAUACCCCAUGA,1.13
UUCUUGCGUAGUUAUGACCAUUGAAUUUAGUUCCCAACAUUCUUUUUGGGUGGCUCGAAACUUCCUGUAACUCCAGCUCCUUGGACAUCCAAUAUCUCUGGCCUGCACAC,0.385
UCAACGGGCUGGGCUGGGUAUGUGCCUACCGAUGACAAUGUGUAAAUAAAUGCGUGUUCACACCCACGCUGGCUCCGUUACUCUCCUGAGCUGGGGGUGGGGGGAUCGGG,1.08

# Series 5
# Target: ABI1, truncated, D143A, DHFR fusion (Arabidopsis thaliana, UniProt P49597)
# Technique: DHFR PCA, dose-response
# Sample: yeast
# Setting: Hill fit, mean, not affinity
# Added: (+)-ABA, dose series
# Direction: lower = more sensitive
# Starting sequence: PYL1, truncated, DHFR fusion (Arabidopsis thaliana, UniProt Q8VZS8); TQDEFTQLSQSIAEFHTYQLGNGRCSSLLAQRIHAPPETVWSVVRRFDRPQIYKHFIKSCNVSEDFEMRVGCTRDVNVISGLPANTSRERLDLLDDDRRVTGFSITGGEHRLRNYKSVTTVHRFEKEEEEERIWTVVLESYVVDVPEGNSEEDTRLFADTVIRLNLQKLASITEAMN
Substitution,ABA EC50
S104C,27.6 µM
H122G,392 µM
L93Q,4.16 µM
R163K,2.99 µM
L164K,9.6 µM
F66A,4.08 µM
R113W,23.2 µM
D48N,27 µM
N114S,41.7 µM
E128V,3.79 µM
K58D,12.7 µM
V100I,2.15 µM
I52K,6.17 µM
F124K,25.9 µM
I133P,0.865 µM
G148E,12.2 µM
T39P,39.3 µM
I133Y,2.29 µM
I12N,169 µM
S11D,1.67 µM
D144Q,24.5 µM
V62H,60.4 µM
Q7V,2.16 µM
Q10R,1.85 µM
